{"data": "Measurements from different studies", "note": "Numbers after ± are the reported error."}
{"Compound": "c1ccc(CN2CCNCCN(Cc3ccccc3)CCNCC2)cc1", "organism": "Leishmania donovani", "assay": "parasite growth, resazurin", "conditions": "72 h, promastigote", "measurement": "IC50", "result": "10.5 µM"}
{"Compound": "CC1(C)NCCC[C@]2(C)[C@H]3CC=C4[C@@H]5C[C@@](C)(CO)CC[C@]5(C)CC[C@@]4(C)[C@]3(C)CC[C@@H]12", "organism": "Human papillomavirus 11", "assay": "viral replication", "system": "C-33 A", "how to read": "relative to: CC50 over EC50", "measurement": "selectivity index", "result": "< 1"}
{"Compound": "CC1N=C(CCCCCCCCCCC2=CC(CCCCCCCCCCC3=NC(C)C(O)CC3)C3CCCN3C2)CCC1O (stereo not shown)", "organism": "Leishmania donovani", "system": "amastigotes in THP-1 macrophages", "measurement": "IC90", "result": "2.48 ± 0.62 µg/mL"}
{"Compound": "CC1(C)C(C=C(Cl)Cl)C1C(=O)OCc1c(F)ccc(F)c1F (stereo not shown)", "organism": "Anopheles funestus", "assay": "glazed tile contact bioassay", "system": "FUMOZ-R resistant", "conditions": "24 h", "how to read": "relative to: LC50 FUMOZ-R over LC50 FANG", "measurement": "resistance ratio", "result": 5.77}
{"Compound": "CC(=O)[O-].F[P-](F)(F)(F)(F)F.[Cu+2].c1ccc(CN2CCN3CCN(CC2)CCN(Cc2ccccc2)CC3)cc1", "organism": "Leishmania donovani", "assay": "parasite growth, resazurin", "conditions": "72 h, promastigote", "measurement": "IC50", "result": "> 20 µM"}
{"Compound": "Cc1cc(C(=O)Nc2nc3cccc(C)c3n2[C@H]2CCCCN(C(=O)/C=C/CN(C)C)C2)ccn1", "organism": "Trypanosoma brucei brucei", "system": "2T1 overexpressing CLK1 C215S", "conditions": "72 h", "how to read": "relative to: parental 2T1", "measurement": "EC50 shift", "result": "> 60 fold"}
{"Compound": "S=C(NCc1ccccn1)NCc1ccccn1", "organism": "Agrobacterium tumefaciens", "conditions": "10 µg/mL", "measurement": "inhibition zone diameter", "result": "21 mm"}
{"Compound": "O=[N+]([O-])c1ccc(C2=[N+]([O-])c3ccccc3N3CCCN=C23)cc1", "organism": "Porphyromonas gingivalis", "assay": "microbial growth", "system": "ATCC33277", "measurement": "MIC", "result": "≤ 0.06 µg/mL"}
{"Compound": "Fc1cc2nc3c4cccnc4c4ncccc4c3nc2cc1F.[Cl-].[Cl-].[Ru+2].c1ccncc1.c1ccncc1.c1ccncc1.c1ccncc1", "organism": "Enterococcus faecalis", "system": "VRE ATCC 51299", "conditions": "LED irradiation 470 nm", "measurement": "MIC90", "result": "2 µM"}
{"Compound": "CC#N.[Cl][Mn-2]([Cl])([Cl])[Cl].[Mn+2].c1ccc(CN2CCCN3CCCN(CCCN(Cc4ccccc4)CC3)CC2)cc1", "organism": "Leishmania donovani", "assay": "parasite growth, resazurin", "conditions": "72 h, amastigote", "measurement": "IC90", "result": "2.68 µM"}
{"Compound": "COc1cc(-c2ccc3oc(-c4ccsc4)c(C#CC4(O)CCCCC4)c3c2)cc(OC)c1OC", "organism": "hepatitis C virus", "assay": "viral entry, HCV pseudoparticle entry", "system": "genotype 1b", "conditions": "10 µM", "how to read": "relative to: DMSO", "measurement": "remaining activity", "result": "88.4%"}
{"Compound": "F[P-](F)(F)(F)(F)F.F[P-](F)(F)(F)(F)F.[Cu+2].c1ccc(CN2CCCNCCN(Cc3ccccc3)CCCNCC2)cc1", "organism": "Leishmania donovani", "assay": "parasite growth, resazurin", "conditions": "72 h, promastigote", "measurement": "IC90", "result": "> 20 µM"}
{"Compound": "CN1CC(=O)N=C1N.C[C@H](CCC(=O)O)[C@H]1CC[C@H]2[C@@H]3[C@@H](O)C[C@@H]4C[C@H](O)CC[C@]4(C)[C@H]3CC[C@]12C", "organism": "Staphylococcus epidermidis", "system": "TISTR 2172", "conditions": "1 mg per disc, 18 to 24 h, 37 °C, 6 mm disc", "measurement": "inhibition zone diameter", "result": "8.5 ± 0.6 mm"}
